Experimental data collected from several papers.
Each numbered part is a random draw from the data of one study; scales do not carry over between parts. Several values in a cell are separate wells, animals, samples, runs or records.
Chain of UniProt P45984 (whole entry, looked up): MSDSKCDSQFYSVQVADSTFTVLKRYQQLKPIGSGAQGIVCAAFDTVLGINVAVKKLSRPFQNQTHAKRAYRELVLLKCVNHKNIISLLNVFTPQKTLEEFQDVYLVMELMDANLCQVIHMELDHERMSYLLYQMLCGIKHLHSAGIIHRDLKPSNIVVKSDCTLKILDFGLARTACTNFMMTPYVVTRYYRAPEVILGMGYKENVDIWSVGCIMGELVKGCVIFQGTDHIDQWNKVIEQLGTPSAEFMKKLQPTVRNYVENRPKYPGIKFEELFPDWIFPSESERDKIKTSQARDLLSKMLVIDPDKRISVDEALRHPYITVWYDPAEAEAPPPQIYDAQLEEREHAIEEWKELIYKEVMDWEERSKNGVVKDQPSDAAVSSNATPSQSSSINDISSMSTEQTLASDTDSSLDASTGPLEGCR
Chain of UniProt P37173 (whole entry, looked up): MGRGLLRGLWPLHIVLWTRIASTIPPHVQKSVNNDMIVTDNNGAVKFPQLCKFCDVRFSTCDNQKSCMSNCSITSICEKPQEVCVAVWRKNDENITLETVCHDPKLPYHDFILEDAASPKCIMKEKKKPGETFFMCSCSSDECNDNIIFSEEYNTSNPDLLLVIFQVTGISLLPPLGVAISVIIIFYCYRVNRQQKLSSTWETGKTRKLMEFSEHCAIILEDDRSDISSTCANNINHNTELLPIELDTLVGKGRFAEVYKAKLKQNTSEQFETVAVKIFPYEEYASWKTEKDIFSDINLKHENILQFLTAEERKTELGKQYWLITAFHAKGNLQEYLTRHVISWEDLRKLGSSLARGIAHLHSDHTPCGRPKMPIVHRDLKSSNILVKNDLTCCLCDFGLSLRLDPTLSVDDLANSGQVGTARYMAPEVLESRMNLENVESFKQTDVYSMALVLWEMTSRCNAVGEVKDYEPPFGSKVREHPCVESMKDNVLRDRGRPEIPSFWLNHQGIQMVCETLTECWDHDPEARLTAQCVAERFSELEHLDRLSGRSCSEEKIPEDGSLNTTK
Chain of UniProt Q9UIK4 (whole entry, looked up): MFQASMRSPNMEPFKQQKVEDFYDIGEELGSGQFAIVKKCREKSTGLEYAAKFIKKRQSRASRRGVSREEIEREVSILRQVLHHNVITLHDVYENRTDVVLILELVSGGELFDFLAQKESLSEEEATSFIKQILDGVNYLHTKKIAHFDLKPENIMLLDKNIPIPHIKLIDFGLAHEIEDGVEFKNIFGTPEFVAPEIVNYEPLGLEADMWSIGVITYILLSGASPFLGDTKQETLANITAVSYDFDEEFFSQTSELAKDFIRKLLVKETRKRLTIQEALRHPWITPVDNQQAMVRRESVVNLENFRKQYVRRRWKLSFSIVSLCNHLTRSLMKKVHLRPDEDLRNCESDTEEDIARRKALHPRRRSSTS
Chain of UniProt P53355 (whole entry, looked up): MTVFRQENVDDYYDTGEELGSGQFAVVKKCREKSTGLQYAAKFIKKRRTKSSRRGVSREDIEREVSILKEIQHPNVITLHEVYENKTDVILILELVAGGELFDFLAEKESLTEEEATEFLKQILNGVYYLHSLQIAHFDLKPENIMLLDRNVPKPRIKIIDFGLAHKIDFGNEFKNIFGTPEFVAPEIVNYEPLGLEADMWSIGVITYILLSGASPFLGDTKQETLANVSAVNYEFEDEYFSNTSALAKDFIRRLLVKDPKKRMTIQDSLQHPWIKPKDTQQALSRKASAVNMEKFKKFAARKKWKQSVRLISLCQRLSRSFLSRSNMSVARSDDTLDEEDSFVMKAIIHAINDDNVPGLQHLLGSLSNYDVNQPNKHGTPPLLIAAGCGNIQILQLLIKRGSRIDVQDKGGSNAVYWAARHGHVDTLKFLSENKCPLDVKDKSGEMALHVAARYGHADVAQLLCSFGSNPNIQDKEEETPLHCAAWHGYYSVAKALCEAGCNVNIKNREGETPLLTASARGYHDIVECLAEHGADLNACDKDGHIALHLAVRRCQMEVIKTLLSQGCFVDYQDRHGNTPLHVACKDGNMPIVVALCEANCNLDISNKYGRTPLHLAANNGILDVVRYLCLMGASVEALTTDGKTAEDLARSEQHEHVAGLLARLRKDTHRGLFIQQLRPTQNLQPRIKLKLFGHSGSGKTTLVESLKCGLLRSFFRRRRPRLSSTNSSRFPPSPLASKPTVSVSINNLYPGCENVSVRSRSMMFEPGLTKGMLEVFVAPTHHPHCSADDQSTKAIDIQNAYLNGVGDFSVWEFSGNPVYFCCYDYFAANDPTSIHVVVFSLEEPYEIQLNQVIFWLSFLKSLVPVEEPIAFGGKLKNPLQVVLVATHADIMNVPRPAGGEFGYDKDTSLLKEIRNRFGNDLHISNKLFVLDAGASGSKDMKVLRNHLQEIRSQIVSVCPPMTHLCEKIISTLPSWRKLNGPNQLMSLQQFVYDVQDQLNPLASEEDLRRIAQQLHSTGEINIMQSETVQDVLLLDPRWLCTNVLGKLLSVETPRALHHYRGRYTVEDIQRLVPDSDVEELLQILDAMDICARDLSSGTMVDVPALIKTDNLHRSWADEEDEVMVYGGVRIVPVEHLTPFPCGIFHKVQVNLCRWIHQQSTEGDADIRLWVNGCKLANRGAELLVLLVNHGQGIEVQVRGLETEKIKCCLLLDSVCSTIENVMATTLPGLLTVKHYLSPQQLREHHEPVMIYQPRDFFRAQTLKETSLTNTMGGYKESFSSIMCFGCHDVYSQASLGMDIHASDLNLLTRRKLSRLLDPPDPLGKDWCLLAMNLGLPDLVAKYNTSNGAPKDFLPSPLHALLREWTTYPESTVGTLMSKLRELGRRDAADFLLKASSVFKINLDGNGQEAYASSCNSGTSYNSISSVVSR
Chain of UniProt Q96RR4 (whole entry, looked up): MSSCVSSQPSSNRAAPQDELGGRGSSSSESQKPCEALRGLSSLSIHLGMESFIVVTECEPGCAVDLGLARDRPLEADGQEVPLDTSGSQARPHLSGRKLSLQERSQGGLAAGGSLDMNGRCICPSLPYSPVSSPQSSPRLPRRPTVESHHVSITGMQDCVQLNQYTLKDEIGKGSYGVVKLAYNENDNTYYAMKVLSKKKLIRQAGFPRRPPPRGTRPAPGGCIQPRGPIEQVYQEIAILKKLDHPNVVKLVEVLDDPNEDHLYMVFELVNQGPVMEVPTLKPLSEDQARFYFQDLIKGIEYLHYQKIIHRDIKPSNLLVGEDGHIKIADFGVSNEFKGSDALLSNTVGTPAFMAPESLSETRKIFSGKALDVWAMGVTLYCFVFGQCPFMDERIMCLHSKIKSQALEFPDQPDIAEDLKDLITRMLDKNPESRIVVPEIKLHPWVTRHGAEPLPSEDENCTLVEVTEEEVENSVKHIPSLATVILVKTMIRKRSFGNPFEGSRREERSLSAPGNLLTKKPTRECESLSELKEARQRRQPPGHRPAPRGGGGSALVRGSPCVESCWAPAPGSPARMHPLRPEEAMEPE
Chain of UniProt P11802 (whole entry, looked up): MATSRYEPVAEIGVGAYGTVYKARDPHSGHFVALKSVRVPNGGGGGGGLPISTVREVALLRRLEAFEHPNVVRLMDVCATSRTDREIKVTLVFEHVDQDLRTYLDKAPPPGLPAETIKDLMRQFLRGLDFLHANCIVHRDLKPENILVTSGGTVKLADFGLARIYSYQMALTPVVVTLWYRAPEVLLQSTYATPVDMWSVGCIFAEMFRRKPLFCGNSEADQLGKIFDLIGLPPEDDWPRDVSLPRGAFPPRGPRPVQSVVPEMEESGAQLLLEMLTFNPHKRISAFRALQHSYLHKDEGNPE
Chain of UniProt Q99759 (whole entry, looked up): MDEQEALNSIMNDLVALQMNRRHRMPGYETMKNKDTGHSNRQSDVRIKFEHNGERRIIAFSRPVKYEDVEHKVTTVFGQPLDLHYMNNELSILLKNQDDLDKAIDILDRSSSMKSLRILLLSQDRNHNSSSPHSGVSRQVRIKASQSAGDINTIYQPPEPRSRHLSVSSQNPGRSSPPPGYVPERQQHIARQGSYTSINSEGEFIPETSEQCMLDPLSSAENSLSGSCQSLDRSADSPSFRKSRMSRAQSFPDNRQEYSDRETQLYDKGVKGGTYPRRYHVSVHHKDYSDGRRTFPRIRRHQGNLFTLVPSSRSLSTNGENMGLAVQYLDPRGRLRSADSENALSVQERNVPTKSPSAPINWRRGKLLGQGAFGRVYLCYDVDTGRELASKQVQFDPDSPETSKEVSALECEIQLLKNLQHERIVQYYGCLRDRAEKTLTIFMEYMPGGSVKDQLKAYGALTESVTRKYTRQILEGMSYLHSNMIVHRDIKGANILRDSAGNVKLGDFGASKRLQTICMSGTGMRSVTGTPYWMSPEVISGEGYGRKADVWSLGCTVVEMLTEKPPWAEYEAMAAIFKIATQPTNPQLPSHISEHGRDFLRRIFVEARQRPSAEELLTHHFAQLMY
Chain of UniProt Q00535 (whole entry, looked up): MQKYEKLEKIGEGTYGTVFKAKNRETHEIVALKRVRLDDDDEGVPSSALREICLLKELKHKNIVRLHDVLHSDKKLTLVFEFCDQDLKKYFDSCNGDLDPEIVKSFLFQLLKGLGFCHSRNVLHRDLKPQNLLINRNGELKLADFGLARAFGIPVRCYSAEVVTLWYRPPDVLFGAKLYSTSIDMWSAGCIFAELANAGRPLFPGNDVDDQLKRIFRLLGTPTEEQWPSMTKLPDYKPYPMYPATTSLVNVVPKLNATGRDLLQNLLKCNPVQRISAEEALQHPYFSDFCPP

Block 1 — Compound: CC(=O)c1ccc(N2CCOCC2)cc1O; read-out: enzyme activity; mode: inhibitor; concentration: 0.5 µM; reference: control
target | remaining activity
Death-associated protein kinase 2 (DAPK2, Homo sapiens, UniProt Q9UIK4) | 106%
Mitogen-activated protein kinase kinase kinase 3 (MAP3K3, Homo sapiens, UniProt Q99759) | 108%
Protein kinase C alpha type (PRKCA, Homo sapiens, UniProt P17252) | 73.4%
Mitogen-activated protein kinase 9 (MAPK9, Homo sapiens, UniProt P45984) | 105%
Inhibitor of nuclear factor kappa-B kinase subunit beta (IKBKB, Homo sapiens, UniProt O14920) | 103%
TGF-beta receptor type-2 (TGFBR2, Homo sapiens, UniProt P37173) | 132%
cAMP-dependent protein kinase catalytic subunit alpha (PRKACA, Homo sapiens, UniProt P17612) | 102%
Cyclin-dependent kinase 4, with cyclin D1 (CDK4, Homo sapiens, UniProt P11802) | 94.4%
Serine/threonine-protein kinase STK11 (STK11, Homo sapiens, UniProt Q15831) | 103%
Death-associated protein kinase 1 (DAPK1, Homo sapiens, UniProt P53355) | 92.8%
Calcium/calmodulin-dependent protein kinase kinase 2 (CAMKK2, Homo sapiens, UniProt Q96RR4) | 115%
Cyclin-dependent kinase 5, with p25 (CDK5, Homo sapiens, UniProt Q00535) | 99.7%

Block 2
Structure (SMILES): CCCCCCCCCCCCCCCCOP(=O)([O-])OCC[N+](C)(C)C
tested on | test | system | setting | inhibition
Leishmania donovani | high-content imaging | THP-1, MHOM/IN/80/DD8 intracellular amastigotes | 40 µM | 101%
THP-1 |  |  | 4 µM, cytotoxicity | 7%
Leishmania donovani | parasite growth, imaging | THP-1 | 4 µM, intracellular, amastigote | 76% and 94% and 84% and 96% and 65% and 87%
Leishmania donovani | parasite growth, imaging | THP-1 | 1 µM, intracellular, amastigote | 34% and 29% and 51% and 31% and 30%

Block 3 — method: Incucyte 3D growth; concentration: 30 µM; direction: higher = more growth
Structure (SMILES): CC(C)(C(=O)O)[C@H](NC(=O)Cc1cccc(I)c1)c1ccc2oc(=O)[nH]c2c1
cell line | setting | spheroid area
MEL-JUSO | 12.52 h | 8.82e+06 a.u. and 8.55e+06 a.u. and 8.43e+06 a.u. and 7.97e+06 a.u. and 7.17e+06 a.u. and 9.63e+06 a.u.
IPC-298 | 192 h | 2.69e+07 a.u. and 3.04e+07 a.u. and 2.26e+07 a.u. and 3.42e+07 a.u. and 2.87e+07 a.u.
A375 | 240.52 h | 1.67e+08 a.u. and 1.74e+08 a.u. and 1.84e+08 a.u. and 1.91e+08 a.u. and 1.65e+08 a.u. and 1.62e+08 a.u.
IPC-298 | 168 h | 2.68e+07 a.u. and 2.86e+07 a.u. and 2.23e+07 a.u. and 2.73e+07 a.u. and 3.32e+07 a.u. and 2.98e+07 a.u.
NCI-H358 | 204 h | 1.12e+07 a.u. and 8.55e+06 a.u. and 8.26e+06 a.u. and 8.49e+06 a.u. and 6.62e+06 a.u.
A375 | 78.52 h | 4.59e+07 a.u. and 3.89e+07 a.u. and 4.13e+07 a.u. and 5.74e+07 a.u. and 3.73e+07 a.u. and 4.72e+07 a.u.
KP-4 | 210 h | 3.8e+07 a.u. and 5.61e+07 a.u. and 3.51e+07 a.u. and 3.71e+07 a.u. and 1.88e+07 a.u. and 3.63e+07 a.u.
IPC-298 | 132 h | 2.49e+07 a.u. and 2.03e+07 a.u. and 3.09e+07 a.u. and 2.88e+07 a.u. and 2.7e+07 a.u. and 2.55e+07 a.u.
A375 | 492.52 h | 1.78e+08 a.u. and 1.55e+08 a.u. and 1.44e+08 a.u. and 1.4e+08 a.u. and 1.48e+08 a.u. and 1.57e+08 a.u.
A375 | 318.52 h | 1.98e+08 a.u. and 1.75e+08 a.u. and 1.95e+08 a.u. and 1.76e+08 a.u. and 1.7e+08 a.u.
A375 | 426.52 h | 1.62e+08 a.u. and 1.8e+08 a.u. and 1.72e+08 a.u. and 1.81e+08 a.u. and 1.6e+08 a.u. and 1.47e+08 a.u.

Further values, each from its own experiment
SMILES | target | test | setting | scale | endpoint | result
CNC(=O)Nc1ccc2c(c1)C1(CC2)OC(=O)N(CC(=O)N(Cc2ccc(F)cc2)[C@@H](C)C(F)(F)F)C1=O (single isomer, unassigned) | Tyrosine-protein kinase ABL1 (ABL1, Homo sapiens, UniProt P00519, F317I) | KINOMEscan | 1 µM, F317I mutant, phosphorylated | reference: control | remaining binding | 73%

For quick reference, copied from above (block 1):
target | remaining activity
Death-associated protein kinase 1 (DAPK1, Homo sapiens, UniProt P53355) | 92.8%
Death-associated protein kinase 2 (DAPK2, Homo sapiens, UniProt Q9UIK4) | 106%
